Measured values of several laboratories.
Compare with care: the assays were run in different laboratories. ± marks the error that the study gave.

| SMILES | tested on | test | system | setting | how to read | measurement | result |
| --- | --- | --- | --- | --- | --- | --- | --- |
| CN(C)C(=O)c1cccc(N2Cc3cn(Cc4ccc(F)c(F)c4)nc3C2)c1 | MDR1-MDCK |  |  |  | baseline: B-A over A-B | efflux ratio | 1.1 |
| C=CC(=O)Oc1ccc(OC)c(-c2c[nH]c3ncc(-c4cncc(C(=O)N(C)C)c4)cc23)c1 | HEK293T |  |  | concentration not given |  | cytotoxicity | not toxic |
| CN(C)C(=O)c1ccnc(N2Cc3cn(Cc4cc(F)cc(F)c4)nc3C2)n1 | MDR1-MDCK |  |  |  | baseline: B-A over A-B | efflux ratio | 2.1 |
| CC1(C)C(NC(=O)C(=NOC2(C(=O)O)CC2)c2csc(N)n2)C(=O)N1OS(=O)(=O)O (stereo not drawn) | HFL1 | cell growth or viability |  |  |  | CC50 | > 100 µM |
| COC(=O)C1=C(C)Oc2ccc(Br)cc2C1C(C(C)=O)C(=O)OC (stereo not drawn) | 3T3-L1 adipocytes |  |  | IC20, 14 days, adipogenic induction | baseline: untreated | LDH release | ≤ 120% |
| COC1CN([C@H]2CC[C@H]([C@@]3(C)Oc4c(Cl)cc(C(=O)NCc5c(SC)cc(C)[nH]c5=O)c(C)c4O3)CC2)C1 |  | RNA-seq, refers to: TUFT1 | human, whole blood | dose not given, 24 h | baseline: pretreatment baseline | log2 fold change | 1.86 |
| C=CS(=O)(=O)Oc1ccc(OC)c(-c2c[nH]c3ncc(-c4cncc(C(=O)N(C)C)c4)cc23)c1 | HEK293T |  |  | concentration not given |  | cytotoxicity | not toxic |
| CN(C)C(=O)c1cccc(N2Cc3cnn(Cc4ccc(F)cc4)c3C2)c1 | MDR1-MDCK |  |  |  | baseline: B-A over A-B | efflux ratio | 7.3 |
| CN1CCCNC(=O)c2cccc(c2)C(=O)NCCCN(C)CCCNc2cccc3c2C(=O)c2cccc(c2C3=O)NCCC1 | SAS | cell growth or viability, CCK-8 |  | 0.5 µM, 48 h |  | viability | 66.3% |
| CN(C)C(=O)c1cccc(N2Cc3cn(Cc4ccc(F)cc4F)nc3C2)c1 | MDR1-MDCK |  |  |  | baseline: B-A over A-B | efflux ratio | 0.7 |
| CC(=O)N[C@H](C(=O)N[C@H](C(=O)N[C@@H](CCCNC(=N)N)C(=O)N[C@@H](CC(N)=O)C(=O)N[C@@H](CC(=O)O)C(=O)N[C@H](C(=O)N1CCC[C@@H]1C(=O)N1CCC[C@H]1C(=O)N[C@@H](CC(=O)O)C(=O)N[C@@H](CO)C(=O)N[C@@H](CC(C)C)C(=O)N[C@@H](CC(C)C)C(=O)N[C@H](C(=O)N[C@@H](Cc1ccccc1)C(N)=O)C(C)C)C(C)C)[C@@H](C)O)C(C)C | HEK293T | subcellular fractionation LC-MS | cytoplasm | 20 µM, 2 h |  | cytoplasmic peptide amount | not detected |
| O=C(OC[C@@]1(O)C(=O)C=C[C@H]2[C@@H]1[C@H]1C=C[C@@H]2C(=O)[C@]1(O)COC(=O)c1ccccc1)c1ccccc1 | SW480 | cell growth or viability, MTT |  | 12.5 µg/mL |  | viability | 83% |
| CC(=O)N1c2ccc(-c3ccc(CNC(=O)c4cn5cc(-c6cnc(N)nc6)nc(N6CCOCC6)c5n4)cc3)cc2CC[C@@H]1C | HS5 stromal cells |  |  | concentration not given, 48 h |  | cytotoxicity | not toxic |
| O=C(c1ccnc(N2Cc3cn(Cc4ccc(F)cc4)nc3C2)n1)N1CCOCC1 | MDR1-MDCK |  |  |  | baseline: B-A over A-B | efflux ratio | 6.7 |
| O=C1NC2(CC2)COc2ncc(F)cc2[C@H]2COCCN2c2ccn3ncc1c3n2 | CHL |  |  | 150 µg/mL, 4 h, without S9 |  | structural aberrations | 0.3% |
| CCNc1cc2c(cc1C)C1(c3cc(C)c(NCC)cc3O2)c2ccccc2C(=O)N1N=Cc1c[c-]c(-c2ccccn2)cc1.Cc1c(C)c(-c2ccc(-c3ccccc3)cc2)[c-](C)c1C.[Cl-].[Ir+3] | A549 | annexin V/PI flow cytometry |  | 1.0×IC50, 24 h |  | viable cells | 61.88 ± 0.2% |
| CC(C)C[C@@H]1NC(=O)[C@H](CO)NC(=O)[C@H](CC(=O)O)NC(=O)[C@@H]2CCCN2C(=O)[C@H]2CCCN2C(=O)[C@H](C(C)C)NC(=O)[C@H](CC(=O)O)NC(=O)[C@H](CC(N)=O)NC(=O)[C@H](CCCNC(=N)N)NC(=O)[C@H]([C@@H](C)O)NC(=O)[C@H](C(C)C)NC(=O)CCNC(=O)CCNC(=O)[C@H](Cc2ccccc2)NC(=O)[C@H](C(C)C)NC(=O)[C@H](CC(C)C)NC1=O | HEK293T | subcellular fractionation LC-MS | cytoplasm | 20 µM, 2 h |  | cytoplasmic peptide amount | not detected |
| Cl.NCc1ccc2c(c1)CN(C1CCC(=O)NC1=O)C2=O (stereo not drawn) | SNU-423 | CellTiter-Glo |  | concentration not given, 72 h |  | minimum viability | 92.3 ± 4.43% |

Repeated from above:
| SMILES | tested on | test | system | setting | how to read | measurement | result |
| --- | --- | --- | --- | --- | --- | --- | --- |
| CC(=O)N[C@H](C(=O)N[C@H](C(=O)N[C@@H](CCCNC(=N)N)C(=O)N[C@@H](CC(N)=O)C(=O)N[C@@H](CC(=O)O)C(=O)N[C@H](C(=O)N1CCC[C@@H]1C(=O)N1CCC[C@H]1C(=O)N[C@@H](CC(=O)O)C(=O)N[C@@H](CO)C(=O)N[C@@H](CC(C)C)C(=O)N[C@@H](CC(C)C)C(=O)N[C@H](C(=O)N[C@@H](Cc1ccccc1)C(N)=O)C(C)C)C(C)C)[C@@H](C)O)C(C)C | HEK293T | subcellular fractionation LC-MS | cytoplasm | 20 µM, 2 h |  | cytoplasmic peptide amount | not detected |
| O=C1NC2(CC2)COc2ncc(F)cc2[C@H]2COCCN2c2ccn3ncc1c3n2 | CHL |  |  | 150 µg/mL, 4 h, without S9 |  | structural aberrations | 0.3% |
| CCNc1cc2c(cc1C)C1(c3cc(C)c(NCC)cc3O2)c2ccccc2C(=O)N1N=Cc1c[c-]c(-c2ccccn2)cc1.Cc1c(C)c(-c2ccc(-c3ccccc3)cc2)[c-](C)c1C.[Cl-].[Ir+3] | A549 | annexin V/PI flow cytometry |  | 1.0×IC50, 24 h |  | viable cells | 61.88 ± 0.2% |
